Experimental data gathered from unrelated publications.
Protocols differ between the studies behind these lines. ± marks the error that the study gave.
GLP1R: Glucagon-like peptide 1 receptor (GLP1R, Homo sapiens, UniProt P43220)
Chain of UniProt Q5AHK2 (whole entry, looked up): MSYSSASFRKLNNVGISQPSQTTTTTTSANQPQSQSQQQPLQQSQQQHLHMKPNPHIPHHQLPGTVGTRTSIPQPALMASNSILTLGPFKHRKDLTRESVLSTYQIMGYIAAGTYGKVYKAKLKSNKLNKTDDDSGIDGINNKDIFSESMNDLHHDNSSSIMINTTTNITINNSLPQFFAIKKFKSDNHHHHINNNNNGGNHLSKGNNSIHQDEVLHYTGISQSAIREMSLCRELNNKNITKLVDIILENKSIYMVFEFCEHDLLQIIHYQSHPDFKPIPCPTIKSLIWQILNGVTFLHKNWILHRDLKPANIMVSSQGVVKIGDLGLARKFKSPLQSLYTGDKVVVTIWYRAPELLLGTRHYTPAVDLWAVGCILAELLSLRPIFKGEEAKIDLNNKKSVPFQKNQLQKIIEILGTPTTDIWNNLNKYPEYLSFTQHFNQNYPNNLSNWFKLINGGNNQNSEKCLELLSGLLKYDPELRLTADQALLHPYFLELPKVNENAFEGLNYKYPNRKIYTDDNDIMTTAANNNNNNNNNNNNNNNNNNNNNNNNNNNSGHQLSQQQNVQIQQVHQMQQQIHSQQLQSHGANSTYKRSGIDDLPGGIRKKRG
Chain of UniProt P07195 (whole entry, looked up): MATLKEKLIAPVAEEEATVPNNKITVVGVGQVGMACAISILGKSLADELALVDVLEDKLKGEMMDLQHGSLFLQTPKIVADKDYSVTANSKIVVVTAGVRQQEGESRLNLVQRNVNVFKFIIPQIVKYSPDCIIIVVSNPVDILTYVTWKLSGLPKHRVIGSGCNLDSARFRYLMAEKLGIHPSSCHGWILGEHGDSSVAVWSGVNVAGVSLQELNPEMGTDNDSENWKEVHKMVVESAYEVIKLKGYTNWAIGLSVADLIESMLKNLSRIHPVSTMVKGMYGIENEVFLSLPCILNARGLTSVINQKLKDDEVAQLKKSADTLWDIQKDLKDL
Chain of UniProt P50620 (whole entry, looked up): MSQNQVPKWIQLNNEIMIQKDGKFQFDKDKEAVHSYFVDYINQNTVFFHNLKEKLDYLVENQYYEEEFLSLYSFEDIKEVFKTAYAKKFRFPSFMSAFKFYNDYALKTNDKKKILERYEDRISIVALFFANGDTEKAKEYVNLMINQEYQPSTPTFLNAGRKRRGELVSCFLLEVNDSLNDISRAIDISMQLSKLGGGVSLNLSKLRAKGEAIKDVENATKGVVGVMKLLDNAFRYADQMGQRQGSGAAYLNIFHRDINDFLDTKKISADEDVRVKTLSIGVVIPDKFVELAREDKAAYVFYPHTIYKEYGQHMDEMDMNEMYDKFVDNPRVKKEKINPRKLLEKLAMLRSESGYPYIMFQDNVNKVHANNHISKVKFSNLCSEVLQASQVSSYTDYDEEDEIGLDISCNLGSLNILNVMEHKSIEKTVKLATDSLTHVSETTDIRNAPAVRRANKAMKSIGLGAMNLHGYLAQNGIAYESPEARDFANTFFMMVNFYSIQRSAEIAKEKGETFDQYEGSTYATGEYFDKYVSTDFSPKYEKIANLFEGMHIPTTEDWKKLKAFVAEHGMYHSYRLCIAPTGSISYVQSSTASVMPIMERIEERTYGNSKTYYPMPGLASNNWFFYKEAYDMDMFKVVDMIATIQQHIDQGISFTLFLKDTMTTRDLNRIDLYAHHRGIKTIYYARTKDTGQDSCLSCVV
Chain of UniProt Q16774 (whole entry, unmodified, looked up): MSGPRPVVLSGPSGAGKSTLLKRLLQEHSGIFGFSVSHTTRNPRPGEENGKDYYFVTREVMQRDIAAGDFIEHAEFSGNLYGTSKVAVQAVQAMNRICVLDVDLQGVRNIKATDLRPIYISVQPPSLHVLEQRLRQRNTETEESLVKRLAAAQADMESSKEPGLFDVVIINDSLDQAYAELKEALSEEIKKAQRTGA
Chain of UniProt P34995 (whole entry, unmodified, looked up): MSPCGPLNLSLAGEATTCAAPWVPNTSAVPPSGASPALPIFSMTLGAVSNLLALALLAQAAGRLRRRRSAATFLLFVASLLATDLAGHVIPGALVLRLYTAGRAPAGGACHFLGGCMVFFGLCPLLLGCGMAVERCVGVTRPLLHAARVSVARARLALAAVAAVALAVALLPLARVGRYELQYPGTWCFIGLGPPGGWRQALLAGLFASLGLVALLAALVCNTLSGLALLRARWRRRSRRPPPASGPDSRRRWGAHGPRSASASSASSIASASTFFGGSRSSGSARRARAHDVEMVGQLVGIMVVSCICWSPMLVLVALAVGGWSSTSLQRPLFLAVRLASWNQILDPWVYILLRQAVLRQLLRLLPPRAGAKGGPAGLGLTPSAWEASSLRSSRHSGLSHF
Chain of UniProt P04150 (whole entry, looked up): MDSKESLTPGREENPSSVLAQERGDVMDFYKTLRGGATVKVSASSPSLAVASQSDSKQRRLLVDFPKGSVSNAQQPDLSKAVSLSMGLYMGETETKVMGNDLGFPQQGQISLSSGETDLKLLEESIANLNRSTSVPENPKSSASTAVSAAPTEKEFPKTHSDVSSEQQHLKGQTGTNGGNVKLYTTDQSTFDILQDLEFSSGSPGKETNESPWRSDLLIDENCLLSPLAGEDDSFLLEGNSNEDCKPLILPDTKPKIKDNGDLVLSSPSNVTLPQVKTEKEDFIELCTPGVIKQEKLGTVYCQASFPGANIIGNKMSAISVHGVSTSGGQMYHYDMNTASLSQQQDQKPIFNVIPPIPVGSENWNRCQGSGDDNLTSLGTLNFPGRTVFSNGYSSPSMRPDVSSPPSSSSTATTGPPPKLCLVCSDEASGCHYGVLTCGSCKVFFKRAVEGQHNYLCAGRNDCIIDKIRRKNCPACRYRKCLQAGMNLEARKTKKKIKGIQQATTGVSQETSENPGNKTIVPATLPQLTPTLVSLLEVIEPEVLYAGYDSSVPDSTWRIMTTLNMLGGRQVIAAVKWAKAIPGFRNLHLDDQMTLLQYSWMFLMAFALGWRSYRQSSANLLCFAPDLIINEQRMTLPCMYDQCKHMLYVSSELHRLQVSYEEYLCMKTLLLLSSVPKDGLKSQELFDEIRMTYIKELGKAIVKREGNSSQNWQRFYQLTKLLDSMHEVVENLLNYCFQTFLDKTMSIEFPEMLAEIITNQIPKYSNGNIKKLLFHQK

Structure (SMILES) | target | test | system | conditions | scale | measurement | value
COc1ccccc1-c1n[nH]c2nc(N[C@H]3CC[C@H](NS(=O)(=O)CCCOCCOCCNC(=O)OC(C)(C)C)CC3)ncc12 | Leishmania donovani STE11 (LinJ.24.1500) | resin binding competition | promastigote lysate | 10 µM | baseline: DMSO | log2 SILAC ratio heavy/light | 2.81
CC(C)C[C@@H](C=O)NC(=O)[C@H](CC(C)C)NC(=O)[C@H](CC(C)C)NC(=O)OCc1ccccc1 | NanoBiT HiBiT/LgBiT luciferase | inhibitor, HiBiT luminescence counterscreen | conditioned medium only | 5 µM, 24 h | baseline: vehicle | luminescence signal reduction | -1.32%
CC[C@H](C)[C@H](NC(=O)[C@H](Cc1ccccc1)NC(=O)[C@H](CCC(=O)O)NC(=O)[C@H](CCCNC(=N)N)NC(=O)[C@H](C)NC(=O)[C@H](C)NC(=O)[C@H](CCC(N)=O)NC(=O)[C@H](CCC(=O)O)NC(=O)[C@H](CCC(=O)O)NC(=O)[C@H](CC(C)C)NC(=O)[C@H](Cc1ccc(O)cc1)NC(=O)[C@H](CO)NC(=O)[C@H](CO)NC(=O)[C@H](CCCCNc1c(NCCCCCN(O)C(=O)CCC(=O)NCCCCCN(O)C(=O)CCC(=O)NCCCCCN(O)C(C)=O)c(=O)c1=O)NC(=O)[C@H](CC(=O)O)NC(=O)[C@H](CO)NC(=O)[C@@H](NC(=O)[C@H](Cc1ccccc1)NC(=O)[C@@H](NC(=O)CNC(=O)[C@H](CCC(=O)O)NC(=O)[C@H](C)NC(=O)CCc1cnc[nH]1)[C@@H](C)O)[C@@H](C)O)C(=O)N[C@@H](C)C(=O)N[C@@H](Cc1c[nH]c2ccccc12)C(=O)N[C@@H](CC(C)C)C(=O)N[C@H](C(=O)N[C@@H](CCCNC(=N)N)C(=O)NCC(=O)N[C@@H](CCCNC(=N)N)C(=O)N[C@@H](CCCCNC(=O)COCCOCCNC(=O)COCCOCCNC(=O)CC[C@H](NC(=O)CCCCCCCCCCCCCCCCC(=O)O)C(=O)O)C(=O)NCC(=O)NCC(=O)N[C@@H](CO)C(=O)N[C@@H](CCCCNc1c(NCCCCCN(O)C(=O)CCC(=O)NCCCCCN(O)C(=O)CCC(=O)NCCCCCN(O)C(C)=O)c(=O)c1=O)C(=O)O)C(C)C | GLP1R | agonist, CRE luciferase reporter | BHK cells | Zr-loaded DFO conjugate, added: 0% HSA | baseline: parent peptide | fold potency loss | 28.9
Oc1ccccc1-c1n[nH]cc1-c1ccnc2ccccc12 | Serine/threonine-protein kinase SSN3 (SSN3, Candida albicans, UniProt Q5AHK2) | kinase binding, MIB/MS competition | Candida albicans lysate | 10 µM | baseline: DMSO, negative = stronger binding | log2 fold change | 0
Nc1ncnc2c1ncn2[C@@H]1O[C@H](COP(=O)(O)OP(=O)(O)O)[C@@H](O)[C@H]1O | GUK1 (Homo sapiens, UniProt Q16774) | ITC | – | molar ratio 0.9041 | – | ΔH | -1.57 kcal/mol
C[C@@H]1C[C@H]2[C@@H]3CCC4=CC(=O)C=C[C@]4(C)[C@@]3(F)[C@@H](O)C[C@]2(C)[C@@]1(O)C(=O)CO | Glucocorticoid receptor (NR3C1, Homo sapiens, UniProt P04150) | agonist, radioligand binding | – | – | – | Hill coefficient | 1
CCCCC[C@H](O)/C=C/[C@H]1[C@H](O)CC(=O)[C@@H]1C/C=C\CCCC(=O)O | Prostaglandin E2 receptor EP1 subtype (PTGER1, Homo sapiens, UniProt P34995, H145A) | IP1 accumulation, agonist | AD293 | 1 h, EP1 H145A mutant | – | Emax | 59.6 ± 8.03%
Nc1nc2c(ncn2[C@H]2C[C@H](O)[C@@H](COP(=O)(O)OP(=O)(O)OP(=O)(O)O)O2)c(=O)[nH]1 | nrdE, with NrdF (Bacillus subtilis, UniProt P50620) | ADP reduction, allosteric activator | – | 37 °C, added: Mn(III)2-Y• NrdF | – | apparent Km | 1.7 ± 0.2 µM
Cc1ncsc1-c1ccc(CNC(=O)[C@@H]2C[C@@H](O)CN2C(=O)[C@@H](NC(=O)CCCCCCCCCCCC(=O)NCCCCC#Cc2cccc(-c3nn(-c4nc(C(=O)O)cs4)c(CC4CC4)c3Cc3ccc(S(N)(=O)=O)cc3)c2)C(C)(C)C)cc1 | L-lactate dehydrogenase B chain (LDHB, Homo sapiens, UniProt P07195) | degrader, western blot | PANC-1 | 1 µM | – | onset time of degradation | 24 h
CC[C@H](C)[C@H](NC(=O)[C@H](Cc1ccccc1)NC(=O)[C@H](CCC(=O)O)NC(=O)[C@H](CCCNC(=N)N)NC(=O)[C@H](C)NC(=O)[C@H](C)NC(=O)[C@H](CCC(N)=O)NC(=O)[C@H](CCCCNc1c(NCCCCCN(O)C(=O)CCC(=O)NCCCCCN(O)C(=O)CCC(=O)NCCCCCN(O)C(C)=O)c(=O)c1=O)NC(=O)[C@H](CCC(=O)O)NC(=O)[C@H](CC(C)C)NC(=O)[C@H](Cc1ccc(O)cc1)NC(=O)[C@H](CO)NC(=O)[C@H](CO)NC(=O)[C@H](CCCCNc1c(NCCCCCN(O)C(=O)CCC(=O)NCCCCCN(O)C(=O)CCC(=O)NCCCCCN(O)C(C)=O)c(=O)c1=O)NC(=O)[C@H](CC(=O)O)NC(=O)[C@H](CO)NC(=O)[C@@H](NC(=O)[C@H](Cc1ccccc1)NC(=O)[C@@H](NC(=O)CNC(=O)[C@H](CCC(=O)O)NC(=O)[C@H](C)NC(=O)CCc1cnc[nH]1)[C@@H](C)O)[C@@H](C)O)C(=O)N[C@@H](C)C(=O)N[C@@H](Cc1c[nH]c2ccccc12)C(=O)N[C@@H](CC(C)C)C(=O)N[C@H](C(=O)N[C@@H](CCCNC(=N)N)C(=O)NCC(=O)N[C@@H](CCCNC(=N)N)C(=O)N[C@@H](CCCCNC(=O)COCCOCCNC(=O)COCCOCCNC(=O)CC[C@H](NC(=O)CCCCCCCCCCCCCCCCC(=O)O)C(=O)O)C(=O)O)C(C)C | GLP1R | agonist, CRE luciferase reporter | BHK cells | Zr-loaded DFO conjugate, added: 1% HSA | baseline: parent peptide | fold potency loss | 21.4

For quick reference, copied from above:
Structure (SMILES) | target | test | system | conditions | scale | measurement | value
Nc1ncnc2c1ncn2[C@@H]1O[C@H](COP(=O)(O)OP(=O)(O)O)[C@@H](O)[C@H]1O | GUK1 (Homo sapiens, UniProt Q16774) | ITC | – | molar ratio 0.9041 | – | ΔH | -1.57 kcal/mol
